Published values collected from several papers.
Compare with care: the assays were run in different laboratories. ± marks the error that the study gave.
Target: Neutrophil elastase (ELANE, Homo sapiens, UniProt P08246)
Action: inhibitor
Sequence (P08246 30-267, as in one of the studies): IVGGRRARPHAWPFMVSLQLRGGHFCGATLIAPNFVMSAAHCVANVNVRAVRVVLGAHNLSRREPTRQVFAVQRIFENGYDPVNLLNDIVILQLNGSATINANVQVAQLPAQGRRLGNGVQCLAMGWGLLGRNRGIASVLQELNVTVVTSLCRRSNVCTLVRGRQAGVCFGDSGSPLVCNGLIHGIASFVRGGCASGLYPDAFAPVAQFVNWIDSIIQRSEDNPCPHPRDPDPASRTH

| SMILES | test | conditions | measurement | value |
| --- | --- | --- | --- | --- |
| O=C(Nc1cccc(C(=O)Nc2ccc(S(=O)(=O)O)c3cc(S(=O)(=O)O)cc(S(=O)(=O)O)c23)c1)Nc1cccc(C(=O)Nc2ccc(S(=O)(=O)O)c3cc(S(=O)(=O)O)cc(S(=O)(=O)O)c23)c1 | enzyme activity, chromogenic substrate hydrolysis | pH 7.4, 37 °C, 100 mM NaCl, with: substrate S-1384 | maximal inhibition | 62.7 ± 6.9% |
| Cc1ccc(S(=O)(=O)N/N=C/c2ccsc2B(O)O)cc1 | enzyme activity |  | kon | 216 M⁻¹ s⁻¹ |
| Cc1nc2ccccc2n1S(=O)(=O)c1ccc2c(c1)C(=O)CC2=O | enzyme activity, fluorescence | 50 µM | inhibition | 31.9% |
| COc1cc(-c2ccc(/N=N/c3ccc4c(S(=O)(=O)O)cc(S(=O)(=O)O)c(N)c4c3O)c(OC)c2)ccc1/N=N/c1ccc2c(S(=O)(=O)O)cc(S(=O)(=O)O)c(N)c2c1O | enzyme activity, chromogenic substrate hydrolysis | pH 7.4, 37 °C, 100 mM NaCl, with: substrate S-1384 | maximal inhibition | 108 ± 5.3% |
| Cc1ccc(S(=O)(=O)N2N=Cc3ccsc3B2O)cc1 | enzyme activity |  | kon | 2.68 M⁻¹ s⁻¹ |
| Cc1cc(C)cc(NC(=O)Nc2cccc(S(=O)(=O)O)c2)c1 | enzyme activity, fluorescence | 100 µM | inhibition | 41.3% |
| COc1cc(/C=N\C(=S)NNC(=O)CC2C(=O)c3ccccc3C2=O)cc(OC)c1OC | enzyme activity, fluorescence | 0.1 µM | inhibition | 14% |
| Cc1cc(-c2ccc(/N=N/c3ccc4c(S(=O)(=O)O)cc(S(=O)(=O)O)c(N)c4c3O)c(C)c2)ccc1/N=N/c1ccc2c(S(=O)(=O)O)cc(S(=O)(=O)O)c(N)c2c1O | enzyme activity, chromogenic substrate hydrolysis | pH 7.4, 37 °C, 100 mM NaCl, with: substrate S-1384 | maximal inhibition | 97 ± 3.2% |
| OB1c2sccc2C=NN1Cc1ccccc1 | enzyme activity |  | kon | 12.8 M⁻¹ s⁻¹ |
| CCc1nc2ccccc2n1S(=O)(=O)c1ccc2c(c1)C(=O)CC2=O | enzyme activity, fluorescence | 0.1 µM | inhibition | 42.1% |
| O=C(N[C@@H](CC1CCCCC1)C(=O)N[C@@H](C[C@H]1CCNC1=O)C(=O)C(=O)NC1CC1)OCc1cccc(Cl)c1 |  | 17.5 µM | inhibition | 32% |

Excerpt of the above:
| SMILES | test | conditions | measurement | value |
| --- | --- | --- | --- | --- |
| Cc1ccc(S(=O)(=O)N/N=C/c2ccsc2B(O)O)cc1 | enzyme activity |  | kon | 216 M⁻¹ s⁻¹ |
